# Published values of several laboratories.
# Every numbered part comes from another study and shows a few of its results, in no order.
# Sequence of UniProt P46734 (whole entry, looked up): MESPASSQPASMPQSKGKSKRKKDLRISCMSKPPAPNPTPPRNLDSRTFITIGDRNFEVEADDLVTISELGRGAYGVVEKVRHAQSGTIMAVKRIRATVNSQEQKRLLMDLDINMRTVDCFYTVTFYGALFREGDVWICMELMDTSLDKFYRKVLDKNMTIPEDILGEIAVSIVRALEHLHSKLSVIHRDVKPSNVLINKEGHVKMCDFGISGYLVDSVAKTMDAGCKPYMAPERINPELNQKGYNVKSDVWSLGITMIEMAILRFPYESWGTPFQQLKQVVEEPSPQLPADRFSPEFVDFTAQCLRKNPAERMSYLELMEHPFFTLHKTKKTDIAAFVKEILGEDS
# Sequence of UniProt P57058 (whole entry, looked up): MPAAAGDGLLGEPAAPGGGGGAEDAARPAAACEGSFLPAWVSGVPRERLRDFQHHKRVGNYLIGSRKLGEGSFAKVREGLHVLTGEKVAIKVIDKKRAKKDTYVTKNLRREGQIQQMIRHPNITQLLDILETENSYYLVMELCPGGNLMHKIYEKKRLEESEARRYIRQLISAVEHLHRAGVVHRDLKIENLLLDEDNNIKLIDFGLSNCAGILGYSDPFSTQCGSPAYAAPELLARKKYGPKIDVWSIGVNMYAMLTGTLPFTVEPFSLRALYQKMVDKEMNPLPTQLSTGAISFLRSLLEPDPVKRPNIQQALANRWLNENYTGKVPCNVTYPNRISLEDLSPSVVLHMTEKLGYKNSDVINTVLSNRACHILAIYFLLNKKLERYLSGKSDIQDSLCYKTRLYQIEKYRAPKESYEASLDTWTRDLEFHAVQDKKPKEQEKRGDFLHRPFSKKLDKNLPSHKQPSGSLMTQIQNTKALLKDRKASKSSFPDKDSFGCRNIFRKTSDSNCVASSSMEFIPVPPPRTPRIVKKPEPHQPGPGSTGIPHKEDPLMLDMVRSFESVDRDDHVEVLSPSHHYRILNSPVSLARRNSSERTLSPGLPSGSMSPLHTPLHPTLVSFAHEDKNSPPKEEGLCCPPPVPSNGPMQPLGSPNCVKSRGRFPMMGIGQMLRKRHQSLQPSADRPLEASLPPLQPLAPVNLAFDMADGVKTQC
# Sequence of UniProt Q9Y243 (whole entry, looked up): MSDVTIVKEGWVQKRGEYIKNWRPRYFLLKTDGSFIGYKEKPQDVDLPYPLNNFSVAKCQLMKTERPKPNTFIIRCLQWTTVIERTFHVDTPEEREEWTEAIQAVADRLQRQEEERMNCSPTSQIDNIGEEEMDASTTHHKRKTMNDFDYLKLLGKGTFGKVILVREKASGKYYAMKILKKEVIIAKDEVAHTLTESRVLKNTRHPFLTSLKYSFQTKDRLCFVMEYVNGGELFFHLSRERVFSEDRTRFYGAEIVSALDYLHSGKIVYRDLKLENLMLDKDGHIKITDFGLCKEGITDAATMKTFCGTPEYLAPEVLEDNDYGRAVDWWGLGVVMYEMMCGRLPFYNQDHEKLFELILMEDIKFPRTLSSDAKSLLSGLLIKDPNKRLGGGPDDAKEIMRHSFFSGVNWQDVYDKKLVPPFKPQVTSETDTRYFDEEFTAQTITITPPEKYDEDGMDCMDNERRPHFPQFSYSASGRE
# Sequence of UniProt Q9UF33 (whole entry, looked up): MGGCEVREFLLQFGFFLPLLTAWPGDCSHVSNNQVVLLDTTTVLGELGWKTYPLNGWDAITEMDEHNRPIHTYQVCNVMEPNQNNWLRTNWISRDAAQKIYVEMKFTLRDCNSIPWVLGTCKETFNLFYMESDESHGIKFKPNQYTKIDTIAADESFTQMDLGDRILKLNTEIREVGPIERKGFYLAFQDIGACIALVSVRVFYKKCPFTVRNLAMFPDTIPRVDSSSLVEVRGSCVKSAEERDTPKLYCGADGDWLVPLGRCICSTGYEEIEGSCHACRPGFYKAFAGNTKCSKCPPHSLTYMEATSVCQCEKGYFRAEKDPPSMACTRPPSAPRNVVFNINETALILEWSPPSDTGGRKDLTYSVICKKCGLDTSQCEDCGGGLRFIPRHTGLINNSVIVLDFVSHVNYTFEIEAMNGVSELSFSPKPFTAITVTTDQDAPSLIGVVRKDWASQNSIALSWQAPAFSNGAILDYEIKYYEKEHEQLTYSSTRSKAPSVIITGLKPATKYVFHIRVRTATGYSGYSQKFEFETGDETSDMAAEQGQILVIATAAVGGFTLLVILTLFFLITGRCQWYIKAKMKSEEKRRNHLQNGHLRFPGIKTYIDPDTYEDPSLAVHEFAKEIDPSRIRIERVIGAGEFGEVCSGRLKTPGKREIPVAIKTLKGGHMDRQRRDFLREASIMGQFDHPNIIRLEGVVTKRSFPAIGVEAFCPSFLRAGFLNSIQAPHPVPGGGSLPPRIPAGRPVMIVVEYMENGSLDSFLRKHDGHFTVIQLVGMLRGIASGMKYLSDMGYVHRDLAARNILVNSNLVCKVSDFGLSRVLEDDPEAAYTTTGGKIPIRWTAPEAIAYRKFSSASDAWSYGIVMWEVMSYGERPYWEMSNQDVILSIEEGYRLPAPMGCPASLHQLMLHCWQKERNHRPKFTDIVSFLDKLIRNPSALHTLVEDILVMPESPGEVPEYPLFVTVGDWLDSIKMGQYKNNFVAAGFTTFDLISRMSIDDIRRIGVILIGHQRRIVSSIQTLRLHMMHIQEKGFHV
# Sequence of UniProt Q96D53 (whole entry, looked up): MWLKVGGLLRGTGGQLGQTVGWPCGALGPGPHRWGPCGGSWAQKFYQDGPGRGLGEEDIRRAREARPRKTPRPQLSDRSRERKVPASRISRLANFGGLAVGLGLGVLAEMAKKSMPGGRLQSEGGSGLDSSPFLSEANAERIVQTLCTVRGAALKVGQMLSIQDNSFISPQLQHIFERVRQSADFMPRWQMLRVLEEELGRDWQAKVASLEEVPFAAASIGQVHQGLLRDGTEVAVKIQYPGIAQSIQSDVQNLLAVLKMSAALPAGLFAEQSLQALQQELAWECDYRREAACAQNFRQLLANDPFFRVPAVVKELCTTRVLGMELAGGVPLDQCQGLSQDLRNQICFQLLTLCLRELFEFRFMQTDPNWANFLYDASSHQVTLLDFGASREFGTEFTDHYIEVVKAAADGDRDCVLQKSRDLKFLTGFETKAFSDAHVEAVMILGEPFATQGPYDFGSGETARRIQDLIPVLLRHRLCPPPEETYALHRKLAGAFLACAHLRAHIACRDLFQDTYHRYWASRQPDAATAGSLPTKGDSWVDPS
# Sequence of UniProt P48736 (whole entry, looked up): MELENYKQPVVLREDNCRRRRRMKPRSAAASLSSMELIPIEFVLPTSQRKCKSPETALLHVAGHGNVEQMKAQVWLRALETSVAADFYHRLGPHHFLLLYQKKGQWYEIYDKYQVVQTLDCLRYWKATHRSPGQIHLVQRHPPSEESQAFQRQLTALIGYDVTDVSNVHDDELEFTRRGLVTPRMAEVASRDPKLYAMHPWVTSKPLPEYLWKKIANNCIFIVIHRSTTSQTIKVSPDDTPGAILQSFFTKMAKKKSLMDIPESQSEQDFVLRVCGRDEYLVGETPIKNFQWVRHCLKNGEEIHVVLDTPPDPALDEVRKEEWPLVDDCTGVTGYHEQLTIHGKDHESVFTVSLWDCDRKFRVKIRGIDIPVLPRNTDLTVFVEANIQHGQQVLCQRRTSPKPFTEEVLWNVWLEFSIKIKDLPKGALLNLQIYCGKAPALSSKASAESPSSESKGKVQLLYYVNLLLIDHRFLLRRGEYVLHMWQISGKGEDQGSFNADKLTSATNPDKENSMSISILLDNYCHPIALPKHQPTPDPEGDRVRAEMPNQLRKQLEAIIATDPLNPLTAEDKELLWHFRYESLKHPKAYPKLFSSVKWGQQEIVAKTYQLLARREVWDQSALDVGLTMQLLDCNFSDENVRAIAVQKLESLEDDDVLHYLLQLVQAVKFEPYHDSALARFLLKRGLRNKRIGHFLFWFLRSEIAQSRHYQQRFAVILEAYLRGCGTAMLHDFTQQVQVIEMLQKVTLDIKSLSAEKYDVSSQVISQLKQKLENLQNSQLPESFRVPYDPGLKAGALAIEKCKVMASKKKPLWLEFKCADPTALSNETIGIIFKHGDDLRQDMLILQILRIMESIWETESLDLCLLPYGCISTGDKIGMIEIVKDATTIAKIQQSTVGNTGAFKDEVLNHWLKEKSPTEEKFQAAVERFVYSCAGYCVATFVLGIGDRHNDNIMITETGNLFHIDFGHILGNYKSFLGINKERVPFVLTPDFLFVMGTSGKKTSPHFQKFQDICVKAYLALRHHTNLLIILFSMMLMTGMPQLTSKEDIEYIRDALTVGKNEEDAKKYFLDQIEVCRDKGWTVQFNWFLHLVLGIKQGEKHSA

# Series 1
# Target: Prothrombin, mature alpha-thrombin (F2, Homo sapiens, UniProt P00734)
# Technique: aptamer microarray, sandwich
# Form: DNA with 2'F-ANA
# Sample: in vitro
# Tested at: 200 nM
# Setting: whole 15-mer aptamer, many near background
# With: Cy3 exosite-II aptamer, 400 nM
# Reading: higher = stronger binding
# Strand: GGTTGGTGTGGTTGG
Modification,mean fluorescence intensity [a.u.]
2'F-ANA at 1 2 3 6 7 9 10 11 13 15,63.2
2'F-ANA at 4 6 10 12 13,82.1
2'F-ANA at 2 4 5 7 12 14 15,55.1
2'F-ANA at 5 6 8 12 13 14 15,47.6
2'F-ANA at 3 4 5 6 7 9 14,78.1
2'F-ANA at 3 4 6 12 13 14,382
2'F-ANA at 4 6 7 8 9 10 11 12 13 14 15,55.9
2'F-ANA at 2 3 6 11 13,526

# Series 2
# Compound: CC(=O)N1CCC(c2ccc(C(=O)NC(=N)N)cc2C(F)(F)F)CC1
# Technique: competition with immobilised ligand
# Tested at: 1 µM
target,test,remaining binding
"Ephrin type-A receptor 6 (EPHA6, Homo sapiens, UniProt Q9UF33)",cell-free assay,96%
"RAC-gamma serine/threonine-protein kinase (AKT3, Homo sapiens, UniProt Q9Y243)",cell-free assay,100%
"TGF-beta receptor type-2 (TGFBR2, Homo sapiens, UniProt P37173)",cell-free assay,100%
"Macrophage-stimulating protein receptor (MST1R, Homo sapiens, UniProt Q04912)",cell-free assay,97%
"Tyrosine-protein kinase receptor Tie-1 (TIE1, Homo sapiens, UniProt P35590)",cell-free assay,100%
"Rhodopsin kinase GRK7 (GRK7, Homo sapiens, UniProt Q8WTQ7)",cell-free assay,97%
"Hormonally up-regulated neu tumor-associated kinase (HUNK, Homo sapiens, UniProt P57058)",cell-free assay,100%
"Tyrosine-protein kinase ABL1, phosphorylated (ABL1, Homo sapiens, UniProt P00519, E255K)",binding,100%
"Atypical kinase COQ8B, mitochondrial (COQ8B, Homo sapiens, UniProt Q96D53)",cell-free assay,100%
"Non-receptor tyrosine-protein kinase TYK2, JH2 (TYK2, Homo sapiens, UniProt P29597)",cell-free assay,100%
"Phosphatidylinositol 4,5-bisphosphate 3-kinase catalytic subunit gamma isoform (PIK3CG, Homo sapiens, UniProt P48736)",cell-free assay,100%
"Misshapen-like kinase 1 (MINK1, Homo sapiens, UniProt Q8N4C8)",cell-free assay,95%
"Dual specificity mitogen-activated protein kinase kinase 3 (MAP2K3, Homo sapiens, UniProt P46734)",cell-free assay,100%

# Series 3
# Target: TAR DNA-binding protein 43, full length, His tag (TARDBP, Homo sapiens, UniProt Q13148, residues 1-414)
# Technique: RNA Bind-n-Seq
# Form: RNA
# Sample: in vitro
# Tested at: 20 nM
# Setting: 6-mer, flanks averaged, single round
# With: 150 mM LiCl
# Reference: input library
# Reading: higher = stronger binding
Strand,6-mer enrichment (R)
UAUAAA,0.957
UGGGAU,1.09
UUAGGG,1.1
CUGUGG,1.12
CGUAAU,0.885
UGCAUU,0.956
GCCUUC,0.942
AACUUC,0.854

# Series 4
# Target: Fibroblast growth factor receptor 2 (FGFR2, Homo sapiens, UniProt P21802)
# Sequence of UniProt P21802 (whole entry, looked up): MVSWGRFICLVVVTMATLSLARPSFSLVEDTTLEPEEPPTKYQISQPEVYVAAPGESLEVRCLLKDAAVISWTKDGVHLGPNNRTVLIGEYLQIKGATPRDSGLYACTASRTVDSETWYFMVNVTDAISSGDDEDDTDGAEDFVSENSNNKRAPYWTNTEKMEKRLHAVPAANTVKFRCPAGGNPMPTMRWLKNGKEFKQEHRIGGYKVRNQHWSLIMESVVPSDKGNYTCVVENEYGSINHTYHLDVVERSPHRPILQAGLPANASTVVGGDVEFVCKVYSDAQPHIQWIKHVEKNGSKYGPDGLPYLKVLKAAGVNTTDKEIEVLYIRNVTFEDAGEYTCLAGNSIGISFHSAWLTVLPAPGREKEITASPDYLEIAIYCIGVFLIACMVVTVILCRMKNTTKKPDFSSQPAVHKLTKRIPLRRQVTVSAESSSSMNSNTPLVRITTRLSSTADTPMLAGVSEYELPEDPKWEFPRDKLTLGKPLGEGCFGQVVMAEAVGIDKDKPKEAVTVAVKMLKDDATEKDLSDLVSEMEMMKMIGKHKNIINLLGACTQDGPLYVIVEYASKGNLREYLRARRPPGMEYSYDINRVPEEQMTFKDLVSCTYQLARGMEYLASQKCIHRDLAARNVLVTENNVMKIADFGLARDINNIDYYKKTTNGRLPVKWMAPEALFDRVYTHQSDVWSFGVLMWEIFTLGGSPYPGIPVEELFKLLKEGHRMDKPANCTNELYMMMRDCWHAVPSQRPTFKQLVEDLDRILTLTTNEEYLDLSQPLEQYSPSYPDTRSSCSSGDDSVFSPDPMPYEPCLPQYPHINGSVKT
# Read-out: enzyme activity
# Action: inhibitor
# Tested at: 0.5 µM
# Reference: control
Compound,remaining activity [%]
O=c1cc(N2CCOCC2)oc2c1ccc1ccccc12,107
Nc1[nH]nc2nnc(-c3c(-c4ccccc4)nn4ccccc34)cc12,102
CCOc1cc2ncnc(Nc3cccc(Br)c3)c2cc1OCC,96.3
O=C1NC(=O)/C(=C/c2ccc3nccnc3c2)S1,95
COc1ccc(Cl)cc1NC(=O)Nc1cc(C)nc2ccccc12,96.9
COc1cc2ncnc(N3CCN(C(=O)Nc4ccc(Oc5ccccc5)cc4)CC3)c2cc1OC,92.4
Cc1ccc(NC(=O)c2ccc(CN3CCN(C)CC3)cc2)cc1Nc1nccc(-c2cccnc2)n1,100
Cn1cnc2cc3c(Nc4cccc(Br)c4)ncnc3cc21,98
CCC(=O)Nc1ccc2ncnc(Nc3cccc(Br)c3)c2c1,99.8
COc1cc2ncnc(Nc3ccc(OCc4ccccc4)cc3)c2cc1OC,103
Cn1cc(/C=C2\C(=O)Nc3ccc(S(N)(=O)=O)cc32)c2ccccc21,50.5
COc1cc2ncc(-c3ccccc3)nc2cc1OC,103
CN(C)CCCn1cc(C2=C(c3c[nH]c4ccccc34)C(=O)NC2=O)c2ccccc21,95.4
Cc1nc(Nc2ncc(C(=O)Nc3c(C)cccc3Cl)s2)cc(N2CCN(CCO)CC2)n1,73.7
CCN1/C(=C/C(C)=O)Sc2ccc(OC)cc21,97.1
CC(C)c1nn(-c2c(Cl)cccc2Cl)c2nc(Cc3ccc(OCCO)cc3)[nH]c(=O)c12,97.5
O=C(Nc1ccc(Cl)cc1)c1ccccc1NCc1ccncc1,95.7
CC(C)[C@H](CO)Nc1nc(Nc2cccc(Cl)c2)c2ncn(C(C)C)c2n1,105
